Assay results from different studies.
Protocols differ between the studies behind these lines. ± gives the spread as reported.
CYP2C9: Cytochrome P450 2C9 (CYP2C9, Homo sapiens, UniProt P11712)
Chain of UniProt P11712 (whole entry, looked up): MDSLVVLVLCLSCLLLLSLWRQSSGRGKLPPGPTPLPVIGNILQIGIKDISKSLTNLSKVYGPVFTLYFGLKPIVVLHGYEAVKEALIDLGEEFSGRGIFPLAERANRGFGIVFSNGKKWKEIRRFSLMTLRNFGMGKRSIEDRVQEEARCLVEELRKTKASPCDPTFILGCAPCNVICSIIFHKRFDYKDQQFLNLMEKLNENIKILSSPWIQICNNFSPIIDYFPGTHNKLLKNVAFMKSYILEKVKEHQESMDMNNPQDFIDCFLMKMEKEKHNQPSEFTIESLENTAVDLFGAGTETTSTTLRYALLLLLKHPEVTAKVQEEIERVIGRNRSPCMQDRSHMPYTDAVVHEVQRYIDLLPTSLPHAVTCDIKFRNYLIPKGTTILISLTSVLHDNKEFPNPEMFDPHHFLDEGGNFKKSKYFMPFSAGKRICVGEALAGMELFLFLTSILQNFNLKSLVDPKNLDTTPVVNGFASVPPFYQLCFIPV
Chain of UniProt P08183 (whole entry, looked up): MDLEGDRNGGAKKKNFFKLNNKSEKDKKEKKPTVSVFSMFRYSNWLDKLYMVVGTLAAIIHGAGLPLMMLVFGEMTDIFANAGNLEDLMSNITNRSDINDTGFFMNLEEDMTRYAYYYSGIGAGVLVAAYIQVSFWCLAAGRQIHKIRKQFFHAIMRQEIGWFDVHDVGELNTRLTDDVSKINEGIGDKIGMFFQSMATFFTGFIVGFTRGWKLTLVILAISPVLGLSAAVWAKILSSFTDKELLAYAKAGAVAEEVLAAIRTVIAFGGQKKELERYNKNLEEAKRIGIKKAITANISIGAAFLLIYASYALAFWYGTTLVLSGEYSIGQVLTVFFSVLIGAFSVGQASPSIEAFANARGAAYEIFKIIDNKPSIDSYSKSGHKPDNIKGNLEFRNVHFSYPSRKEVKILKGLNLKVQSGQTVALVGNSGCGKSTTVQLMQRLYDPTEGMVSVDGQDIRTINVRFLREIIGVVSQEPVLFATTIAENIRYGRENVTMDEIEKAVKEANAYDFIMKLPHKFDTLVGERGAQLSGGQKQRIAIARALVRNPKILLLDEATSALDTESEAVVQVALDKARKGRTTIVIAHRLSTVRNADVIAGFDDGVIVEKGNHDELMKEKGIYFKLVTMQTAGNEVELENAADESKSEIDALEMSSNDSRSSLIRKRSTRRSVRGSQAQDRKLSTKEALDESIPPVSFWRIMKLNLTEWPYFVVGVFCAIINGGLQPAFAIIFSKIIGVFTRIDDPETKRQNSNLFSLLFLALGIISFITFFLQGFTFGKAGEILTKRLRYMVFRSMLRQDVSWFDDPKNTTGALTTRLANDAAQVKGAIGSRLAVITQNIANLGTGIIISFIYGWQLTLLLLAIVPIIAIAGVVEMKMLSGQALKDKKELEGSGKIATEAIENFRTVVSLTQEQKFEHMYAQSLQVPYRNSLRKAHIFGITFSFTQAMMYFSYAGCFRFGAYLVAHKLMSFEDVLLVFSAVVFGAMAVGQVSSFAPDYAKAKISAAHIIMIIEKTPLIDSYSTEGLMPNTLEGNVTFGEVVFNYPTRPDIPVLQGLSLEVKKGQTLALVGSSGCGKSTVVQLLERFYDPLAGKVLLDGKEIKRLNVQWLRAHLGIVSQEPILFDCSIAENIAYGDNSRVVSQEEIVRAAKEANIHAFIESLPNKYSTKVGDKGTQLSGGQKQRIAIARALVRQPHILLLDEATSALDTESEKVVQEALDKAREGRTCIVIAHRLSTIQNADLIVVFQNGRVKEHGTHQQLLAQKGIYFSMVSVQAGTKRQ
Chain of UniProt O75469 (whole entry, looked up): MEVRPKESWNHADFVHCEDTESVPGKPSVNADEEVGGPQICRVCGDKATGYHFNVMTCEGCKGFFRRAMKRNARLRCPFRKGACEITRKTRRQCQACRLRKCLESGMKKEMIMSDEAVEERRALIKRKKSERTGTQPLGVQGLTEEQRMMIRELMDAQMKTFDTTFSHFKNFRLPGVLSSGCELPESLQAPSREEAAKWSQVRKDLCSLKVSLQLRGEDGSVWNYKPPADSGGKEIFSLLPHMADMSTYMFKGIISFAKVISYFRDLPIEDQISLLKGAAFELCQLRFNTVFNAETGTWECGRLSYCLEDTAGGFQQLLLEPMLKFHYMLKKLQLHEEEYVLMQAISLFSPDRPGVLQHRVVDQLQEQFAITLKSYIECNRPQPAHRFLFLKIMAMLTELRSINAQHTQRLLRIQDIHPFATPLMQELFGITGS
Chain of UniProt Q05421 (whole entry, looked up): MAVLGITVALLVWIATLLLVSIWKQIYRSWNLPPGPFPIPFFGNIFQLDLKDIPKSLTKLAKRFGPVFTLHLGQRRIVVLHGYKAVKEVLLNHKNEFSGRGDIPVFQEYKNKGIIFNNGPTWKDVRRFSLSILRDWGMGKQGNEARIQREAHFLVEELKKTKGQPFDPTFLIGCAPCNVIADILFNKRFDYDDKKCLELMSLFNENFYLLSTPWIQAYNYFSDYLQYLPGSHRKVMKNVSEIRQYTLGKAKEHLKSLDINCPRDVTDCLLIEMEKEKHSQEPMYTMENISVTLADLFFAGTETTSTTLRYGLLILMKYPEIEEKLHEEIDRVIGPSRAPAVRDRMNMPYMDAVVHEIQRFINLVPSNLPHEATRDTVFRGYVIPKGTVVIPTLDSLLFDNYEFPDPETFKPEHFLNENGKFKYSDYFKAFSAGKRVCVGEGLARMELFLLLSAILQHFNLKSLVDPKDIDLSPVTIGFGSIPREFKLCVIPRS
Chain of UniProt Q16696 (whole entry, looked up): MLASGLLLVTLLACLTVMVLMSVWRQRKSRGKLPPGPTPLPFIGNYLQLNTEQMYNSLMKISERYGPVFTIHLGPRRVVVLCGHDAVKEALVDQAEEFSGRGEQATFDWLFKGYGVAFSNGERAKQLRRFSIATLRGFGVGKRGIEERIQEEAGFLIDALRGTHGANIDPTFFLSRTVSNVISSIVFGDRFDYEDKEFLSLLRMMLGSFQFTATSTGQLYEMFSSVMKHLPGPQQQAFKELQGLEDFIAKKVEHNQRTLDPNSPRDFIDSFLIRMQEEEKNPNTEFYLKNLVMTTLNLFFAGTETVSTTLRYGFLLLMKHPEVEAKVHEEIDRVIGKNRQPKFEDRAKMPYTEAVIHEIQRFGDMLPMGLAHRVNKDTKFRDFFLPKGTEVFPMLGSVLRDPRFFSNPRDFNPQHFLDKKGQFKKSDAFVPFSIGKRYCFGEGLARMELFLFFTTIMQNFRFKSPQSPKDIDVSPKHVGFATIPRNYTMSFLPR
Chain of UniProt Q9NPD5 (whole entry, looked up): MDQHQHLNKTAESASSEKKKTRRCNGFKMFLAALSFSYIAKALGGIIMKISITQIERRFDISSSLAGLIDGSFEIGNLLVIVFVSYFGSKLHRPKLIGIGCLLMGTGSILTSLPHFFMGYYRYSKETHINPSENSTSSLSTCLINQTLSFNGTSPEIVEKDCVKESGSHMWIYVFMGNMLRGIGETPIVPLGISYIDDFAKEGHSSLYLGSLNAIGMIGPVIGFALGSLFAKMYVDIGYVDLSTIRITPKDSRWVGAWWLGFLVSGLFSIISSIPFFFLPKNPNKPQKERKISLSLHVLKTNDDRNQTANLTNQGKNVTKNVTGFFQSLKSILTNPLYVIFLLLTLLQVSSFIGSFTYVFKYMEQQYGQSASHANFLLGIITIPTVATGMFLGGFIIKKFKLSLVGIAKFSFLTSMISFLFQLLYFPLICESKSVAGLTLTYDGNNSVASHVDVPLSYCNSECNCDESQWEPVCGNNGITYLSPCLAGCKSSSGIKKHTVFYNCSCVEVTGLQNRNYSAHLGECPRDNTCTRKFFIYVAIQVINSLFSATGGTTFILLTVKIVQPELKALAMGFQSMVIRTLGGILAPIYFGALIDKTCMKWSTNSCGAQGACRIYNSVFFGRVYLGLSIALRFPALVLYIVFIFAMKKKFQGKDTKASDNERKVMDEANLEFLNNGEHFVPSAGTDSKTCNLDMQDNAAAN
Chain of UniProt P33261 (whole entry, looked up): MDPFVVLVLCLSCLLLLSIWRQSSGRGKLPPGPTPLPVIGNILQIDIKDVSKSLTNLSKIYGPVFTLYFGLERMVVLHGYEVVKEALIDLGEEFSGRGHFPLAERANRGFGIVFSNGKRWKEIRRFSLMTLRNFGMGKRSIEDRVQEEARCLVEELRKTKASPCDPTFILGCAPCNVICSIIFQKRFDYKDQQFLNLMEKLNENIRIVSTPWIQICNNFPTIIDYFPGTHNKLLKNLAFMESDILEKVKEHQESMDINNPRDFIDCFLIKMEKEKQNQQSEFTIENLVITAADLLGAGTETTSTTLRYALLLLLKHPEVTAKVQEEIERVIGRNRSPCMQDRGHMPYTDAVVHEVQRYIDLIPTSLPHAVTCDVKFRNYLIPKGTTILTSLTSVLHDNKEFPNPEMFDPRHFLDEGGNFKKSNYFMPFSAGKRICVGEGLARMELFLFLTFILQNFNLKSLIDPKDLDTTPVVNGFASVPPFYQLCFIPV
Chain of UniProt P08311 (whole entry, looked up): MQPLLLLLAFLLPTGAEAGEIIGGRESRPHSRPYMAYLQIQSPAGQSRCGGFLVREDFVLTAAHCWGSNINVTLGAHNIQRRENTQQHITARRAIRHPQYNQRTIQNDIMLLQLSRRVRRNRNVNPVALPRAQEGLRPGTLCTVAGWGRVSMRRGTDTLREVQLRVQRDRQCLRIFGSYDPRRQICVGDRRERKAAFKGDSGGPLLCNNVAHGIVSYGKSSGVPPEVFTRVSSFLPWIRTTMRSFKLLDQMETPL

Molecule	target	test	system	conditions	how to read	endpoint	result
CC[N+]1=C(C=CC=CC=C2N(CCCCCC(=O)NCCN3C(=O)CC(SC[C@@H](NC(=O)[C@@H](CCCNC(=N)N)NC(=O)[C@@H](CCCNC(=N)N)NC(=O)[C@@H](CCCNC(=N)N)NC(=O)[C@@H](CCCNC(=N)N)NC(=O)[C@@H](CCCNC(=N)N)NC(=O)[C@@H](CCCNC(=N)N)NC(=O)[C@@H](CCCNC(=N)N)NC(=O)[C@@H](CCCNC(=N)N)NC(=O)[C@@H](CCCNC(=N)N)NC(=O)[C@H](CC(C)C)NC(=O)[C@H](CCCCN)NC(=O)[C@H](CC(C)C)NC(=O)[C@H](CCC(N)=O)NC(=O)[C@H](CC(C)C)NC(=O)[C@H](CCCNC(=N)N)NC(=O)CCCCCNC(=O)[C@@H](CCC(=O)O)NC(=O)[C@@H](CCC(=O)O)NC(=O)[C@@H](CCC(=O)O)NC(=O)[C@@H](CCC(=O)O)NC(=O)[C@@H](CCC(=O)O)NC(=O)[C@@H](CCC(=O)O)NC(=O)[C@@H](CCC(=O)O)NC(=O)[C@@H](CCC(=O)O)NC(=O)[C@H](N)CCC(=O)O)C(N)=O)C3=O)c3ccc(S(=O)(=O)O)cc3C2(C)C)C(C)(C)c2cc(S(=O)(=O)[O-])ccc21 (stereo partly shown)	Cathepsin G (CTSG, Homo sapiens, UniProt P08311)	substrate		5 µM, 2 h		cleavage	60%
CC(=O)CC(c1ccc(O)cc1)c1c(O)c2ccccc2oc1=O (stereo not shown)	CYP2C9	enzyme activity, inhibitor		pH 7.4		Ki	17 µM
CNC(=O)Oc1cc(C)c(SC)c(C)c1	CYP2C9	inhibitor	human liver microsomes	2 µM, pH 7.4, with: diclofenac		inhibition	< 0%
c1cn[nH]c1	CYP2E1 (Oryctolagus cuniculus, UniProt P08682)	inhibitor		pH 7.4, 37 °C, catalytic site, with: 4-nitrophenol		Ki	140 µM
CC(C)c1nc(N(C)S(C)(=O)=O)nc(-c2ccc(F)cc2)c1/C=C/[C@@H](O)C[C@@H](O)CC(=O)O	OATP1B1/1B3		human, plasma	oral, 10 mg single dose, with: dabrafenib at dosing initiation	reference: compound alone	Cmax increase	94%
Nc1ncnc2c1nc(SCCNC(=S)Nc1ccc(-c3c4ccc(=O)cc-4oc4cc(O)ccc34)c(C(=O)O)c1)n2[C@@H]1O[C@@H]2COP(=O)(O)O[C@H]2[C@H]1O	SLCO1B3 (Homo sapiens, UniProt Q9NPD5)	substrate	CHO cells	10 min		Km	1.8 µM
calcein AM	ABCB1 (Homo sapiens, UniProt P08183)	ATPase activity, substrate	membranes	with: ATP 1 mM		Km	3.1 ± 0.5 µM
CSCC[C@H](NC(=O)[C@H](CCCCN)NC(=O)CCCCCNC(=O)[C@@H](N)CCCCNC(=O)CCCC[C@@H]1SC[C@@H]2NC(=O)N[C@@H]21)C(=O)N[C@H](C(=O)N[C@@H](Cc1ccccc1)C(=O)N[C@@H](CC(C)C)C(=O)N[C@@H](Cc1ccccc1)C(=O)N[C@H]1CSSC(C)(C)[C@@H](C(=O)N[C@@H](CCCCN)C(N)=O)NC(=O)[C@H](CC(=O)O)NC(=O)[C@H](CCCCN)NC(=O)[C@H](Cc2ccc(O)cc2)NC(=O)[C@H]([C@@H](C)O)NC(=O)[C@H](Cc2ccccc2)NC(=O)[C@H](CC(N)=O)NC1=O)[C@@H](C)O	Chymotrypsinogen A (Bos taurus, UniProt P00766)	proteolytic stability, LC-MS	PBS	0.5 mg/mL, up to 240 min, peptide to protease 50:1 by mass, with: Chymotrypsinogen A at 0.01 mg/mL		half-life	5 min
CC(C)(c1cc(Br)c(O)c(Br)c1)c1cc(Br)c(O)c(Br)c1	NR1I2 (Homo sapiens, UniProt O75469)	reporter gene, agonist, luciferase	COS-7	24 h	reference: DMSO	fold induction	3.1 ± 1.1 fold
C=C(C)[C@@H]1CCC(C)=C[C@H]1c1c(O)cc(CCCCC)cc1O	CYP2C19 (Homo sapiens, UniProt P33261)	cotinine to COX formation, inhibitor	microsomes of overexpressing HEK293 cells	10 µM, 30 min, pH 7.4, with: cotinine 1 mM		inhibition	30%
Clc1cc(Cl)c(-c2c(Cl)cc(Cl)c(Cl)c2Cl)cc1Cl	PXR (polar bear)	reporter gene, agonist, luciferase	COS-7	24 h	reference: DMSO	fold induction	3 ± 0.6 fold
Nc1ccncc1[18F]	Cytochrome P450 2E1 (Cyp2e1, Mus musculus, UniProt Q05421)		awake mice, plasma	intravenous, 35 min, sesame oil vehicle pretreatment		parent fraction	15 ± 1.5%
Brc1ccc(Oc2cc(Br)c(Br)cc2Br)c(Br)c1	PXR (polar bear)	reporter gene, agonist, luciferase	COS-7	24 h	reference: DMSO	fold induction	1.6 ± 0.3 fold
Oc1ccc(/C=C/c2cc(O)cc(O)c2)cc1	UGT1A9 human recombinant	substrate, refers to: 3-glucuronide		pH 7.4		Km	28.9 ± 3.3 µM
Clc1ccc(-c2ccc(Cl)cc2Cl)cc1	PXR (polar bear)	reporter gene, agonist, luciferase	COS-7	24 h	reference: DMSO	fold induction	1.1 ± 0.1 fold
C#CCOc1ccccc1-c1ccccc1OCC#C	Cytochrome P450 2A13 (Homo sapiens, UniProt Q16696)	binding, absorbance		pH 7.4		Kd	11 µM
